Experimental data from different studies.
Each numbered part is a random draw from the data of one study; scales do not carry over between parts.

Study 1 — technique: RNA Bind-n-Seq; molecule type: RNA; sample: in vitro; tested at: 200 nM; notes: whole 134-nt RNA, ends assumed; together with: 150 mM KCl; relative to: input library; direction: higher = stronger binding
Target: Fragile X messenger ribonucleoprotein 1, C-terminal low-complexity region (Fmr1, Mus musculus, UniProt P35922)
Shared flanks, not repeated: GGGAGUUCUACAGUCCGACGAUC … UGGAAUUCUCGGGUGUCAAGG
| Sequence | log2 enrichment |
| --- | --- |
| UCAAGUCCUGUGCUACACAUCGUAUGUACCGAAUCGGGAAGGGGAAGGGGAAGGGAAAGUAUUAUGUUACGCCGUUCGGAUCUGCACUUC | 0.796 |
| UGUCCUGCAGGGUCGGACCGAUACCUGGAGAGCCGCGAUGCCUCUCGACUGAGUGGCCGGGACCCCUCCUCAUGGACAGUCGAGGAUGUG | -2.32 |
| GUCCUGUGCUACACAUCGUAUGUACCGAAUCAAACCCCCAAAUUUUUUUAAACCCAAAAAAGUAUUAUGUUACGCCGUUCGGAUCUGCAC | 0.0945 |
| ACCAUGCAGGUGGGCAUCUUUGGGAAGUGGGGCAAGGGGGAGAUAGGGAGGGGGGUAACACUUUGGGAACAGGUGGUCCCAGGUCGUUUC | 0.893 |
| UCCUGUGCUACACAUCGUAUGUACCGAAUCGGGGUUUUUUUGGGGUGGGGAAAAAGGGGAAAGUAUUAUGUUACGCCGUUCGGAUCUGCA | 0.613 |
| AAAGGAAGUAAAAACAAAUGGAAAUGCUUCGGAUAGUGGCAGGGGUGGGGGUUGCUAAGGAAAGGGUGGGAUGGGAGUGGGUAAAGAGUU | 0.146 |
| GUCCUGUGCUACACAUCGUAUGUACCGAAUCGGGGUUUGGGGUUUGGGGAAAAAGGGGAAAGUAUUAUGUUACGCCGUUCGGAUCUGCAC | 0.616 |
| ACCAUGCAGGUGGGCAUCUUUGGGAAGUGGGGCAAGGGGGGGAUGGGGAGGGGGGUAACACUUUGGGAACAGGUGGUCCCAGGUCGUUUC | 0.837 |
| UUUCUAGGCAAGAGGAGGAACGACGUAGAAGAGAGGAAGAGAUGAUGAUUCGUCAACGUGAGAUGGAAGAACAAAUGAGGCGCCAAAGAG | 0.534 |
| CGCUAAAGAGGAGCACGGUGGACUGAUGUGAGCUUCUCUUCCUGCCCCUUCCUCCCUGAUGUCCACUCCCUUCACCUUCCUCACGCCCGU | 0.595 |
| UGGGAGGUGGAUUUUGUUUAUUUUUUUAGCUCAUUUCCAGGGGUGGGAAUUUUUUCUUAAUAUGUGUCAUGAAUAAAGUUGUUUUUGAAA | 0.227 |
| GUCCUGUGCUACACAUCGUAUGUACCGAAUCGGGGAGGGGUUUGGGGAAAAAAAGGGGAAAGUAUUAUGUUACGCCGUUCGGAUCUGCAC | 0.353 |
| GUCCUGUGCUACACAUCGUAUGUACCGAAUCGGCCCCCGGCCCCCGGGGCCCCCGGGGAAAGUAUUAUGUUACGCCGUUCGGAUCUGCAC | -0.346 |
| GUCCUGUGCUACACAUCGUAUGUACCGAAUCGGAAAAAGGAAAAAGGGGAAAAAGGGGAAAGUAUUAUGUUACGCCGUUCGGAUCUGCAC | -0.107 |

Study 2 — technique: protein-binding microarray; molecule type: double-stranded DNA, one strand shown; sample: in vitro; tested at: 2200 nM top; notes: 60-bp whole probe; together with: salmon DNA 0.4 mg/ml; relative to: random background probes; direction: higher = stronger binding; shared flanks, not repeated: GCCTAGCAC … GTCTTGATTCGCTTGACGCTGCTG
Target: Interferon regulatory factor 7, full length, phosphomimetic (IRF7, Homo sapiens, UniProt Q92985, residues 1-503, S471D/S472D/S475D/S476D/S477D/S483D/S484D/S487D)
Sequence of UniProt Q92985 (whole entry, unmodified, looked up): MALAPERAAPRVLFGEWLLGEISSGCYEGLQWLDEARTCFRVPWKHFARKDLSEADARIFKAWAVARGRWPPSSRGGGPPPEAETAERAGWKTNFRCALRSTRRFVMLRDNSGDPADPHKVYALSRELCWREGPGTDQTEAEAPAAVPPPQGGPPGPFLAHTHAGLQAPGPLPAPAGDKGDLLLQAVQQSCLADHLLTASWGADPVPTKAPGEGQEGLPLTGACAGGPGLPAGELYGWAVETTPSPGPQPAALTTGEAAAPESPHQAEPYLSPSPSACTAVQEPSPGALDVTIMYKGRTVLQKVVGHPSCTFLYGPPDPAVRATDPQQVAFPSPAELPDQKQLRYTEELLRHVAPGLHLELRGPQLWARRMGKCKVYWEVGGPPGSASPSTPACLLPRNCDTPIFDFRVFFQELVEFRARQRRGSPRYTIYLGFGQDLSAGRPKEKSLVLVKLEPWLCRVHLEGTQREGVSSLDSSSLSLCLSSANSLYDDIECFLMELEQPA
| Sequence | fitted relative affinity [z-score] |
| --- | --- |
| TCACTTCTTTTTTATTCTACTGTGCTA | 2.24 |
| TAAGGTATCCTTCTCCTTTAGTGCTAG | 1.13 |
| GAAGGTATCGGGTATCGGGACGTGCTA | -0.154 |
| TCATTTTTCTTTAAAAGACTGTGCTAG | 1 |
| GACAGTATCCTACTGCTGACGTGCTAG | 0.678 |
| TTCAGTTTCACTGCTGCCCTGTGCTAG | 3.03 |
| TTAGGTCTCCTTATACTTTAGTGCTAG | 0.56 |
| GACGGTATCGACTAGCGGGACGTGCTA | 0.0536 |
| GACGGCTTCGACTATCGGGACGTGCTA | -0.38 |
| TCATCTCTCTGTGACACACTGTGCTAG | 1.51 |
| AGAGCCATCAATATCTGCAAGTGCTAG | -0.484 |
| GACGATATCTGACTGGAGACGTGCTAG | 0.186 |
| TTAGAACTGGGGTATCGCTTAGTGCTA | 0.0421 |
| TTAGACCTGAGTATCGATTAGTGCTAG | -0.179 |
| TATCATTTAATTATATGGCTGTGCTAG | 0.362 |
| TTAGGTCTCCTTTTCCTATAGTGCTAG | 1.62 |

Study 3 — technique: RNA Bind-n-Seq; molecule type: RNA; sample: in vitro; tested at: 365 nM; relative to: no-protein control; direction: higher = stronger binding
Target: RNA binding protein fox-1 homolog 2, RRM domain, GST-SBP tag (RBFOX2, Homo sapiens, UniProt O43251-10, residues 100-194)
Notes: natural RNA segment, single round, ends assumed
Shared flanks, not repeated: GGGAGUUCUACAGUCCGACGAUC … UGGAAUUCUCGGGUGCCAA
Target sequence (chain): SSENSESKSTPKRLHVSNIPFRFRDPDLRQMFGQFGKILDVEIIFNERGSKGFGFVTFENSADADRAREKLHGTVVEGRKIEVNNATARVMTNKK
| Sequence | RBNS enrichment (R) |
| --- | --- |
| UCCUCCGUGCGCCUCAGACUCGGGGUGAGGGAGGCGGGCAGCCUCUCGCCAGCCUUCCCGUCCUUCAGUUCAACGACAUCUUUGGAGUGUUUUUGUUUUCUCUUCCAAGG | 0.224 |
| AACCAGAUUGAUCCAAUUGGCCAUGGGAGCUUAGGCCAUAGUCUUGGAAGUGAGCAGGACAAAGACCAUGUUUUAGAGAUGUGAUAACUUCCUAGGACUAAGUUUACUAA | 0.409 |
| GCCUAGCCUCAGAUCCUCCGUGAGUAUGCCUACCAAAUGUUGUGAUUAAAGAGGCAGGCGUCACCACACCUGAUAAAUAUUUUCUUCAAGGGAACCAGAGUUUGGUUCUU | 0.354 |
| UUUUUAGGCCACAUUGACAGUGGUGGGCGGGGAGAAGAUAGGGAACACUCAUCCCUGGUCGUCUAUCCCAGUGUGUGUUUAACAUUCACAGCCCAGAACCACAGAUGUGU | 0.26 |
| CCAGACAAGCUUCAUUCUGAUGCGCUAGUCCCUUGGUUUAAUUUGUGCCUUAUGCUUUCAUUGGACCAGCUGAAAUCACUGUAUUUAUUCAACUAGUGAUUUUUUUUUCU | 0.562 |
| UUUGUAAUUUGCAUUUAUAUACUCAUUUUAAAUGACUUUUCAGUGUUUUUCAUAGUUUAUAAUCUGAUGGCUAACUAACUUUCAAAACAGCUUUUAACUAAGUUUGUUGU | 0.717 |
| UAAACAGCUCCUCCCAGCAUUUGCAUUUGCCCUUCUGUUUCUGUGAGGCCGGCAGCCCUUGGGGCUGGGGAGAGCACAGCUUGCCUUGGACUUGCUUCUGAACACGAAUU | 0.909 |
| GUACAAUGUUAUUUCAAUCUUAUAUAAAAAUGGUCUUCUGAAAAAUCUAUAAAACAGGCCUGAGAAGAUAGUUCUGGUCUUGUUCUGACUGUGGUAACUAGCUGUGACCA | 0.839 |
| CGGGAAGCUUCUUGUGUCUGGAAGCUUCUUGUGUCUCCACGUUUCAAUUUUGUUUUGUUUUACCACUUUCAUUUUUAAACGUUUUCCAGUAUCCCCCCCAAAAUUUUAGA | 0.599 |
| AUUUAGUCAAUUUACCGUGUCUUAAUUUAAUCUUUGUACACCUUCCAUUUUUAAGUGCUUAAAUGAGUACUAUAUUGCAAUAAAAAAUGUAGCGAUAUUAAAAAAAAUGU | 0.409 |
| UCAUCCCUGCCACCACCAUUGGUCUCUGCCAGCUGAAGUGCCCUAUUGCCCCCGCACAGCACCAUCUCAGCAUUCCACAGGGGACUCUGGAAAGGGUGCGGAAGGUAGGC | 0.798 |
| GUGUUUUGACAUCAUGUAAACCUAAGCACGUAGAGAUGAUUCGGAUUUGACAAAAUAACAUUUGAGUAUCCGAUUCGCCAUCACCCCCUACCCCAGAAAUAGGACAAUUC | 0.344 |

Study 4 — technique: protein binding microarray; molecule type: double-stranded DNA, one strand shown; sample: in vitro; tested at: not given; relative to: not given; direction: higher = stronger binding
Target: Histone acetyltransferase KAT6A, winged helix 1, GST fusion (KAT6A, Homo sapiens, UniProt Q92794, residues 1-85)
Notes: 8-mer, flanks averaged, mean of 2 arrays, mostly near background
Target sequence (chain): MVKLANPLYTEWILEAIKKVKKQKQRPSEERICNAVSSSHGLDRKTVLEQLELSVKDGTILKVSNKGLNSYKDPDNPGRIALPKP
| Sequence | E-score |
| --- | --- |
| GAGAATGC | 0.119 |
| AATTCAGT | -0.112 |
| ATCTATAC | -0.0761 |
| AAAAATCT | -0.267 |
| TATGAGGA | -0.294 |
| CACGAGCA | -0.264 |
| CATATGCA | -0.134 |
| CAGTTATA | -0.108 |
| TGAGGCAA | -0.187 |
| TGCAAGCA | -0.00261 |
| CATCCGCC | 0.163 |
| TGGCCGAA | 0.0739 |
| ATCTTATC | -0.161 |
| CATGCTGA | -0.223 |
| AGGCGGCA | 0.172 |
| AACCCTGA | -0.06 |
| GATCACAA | -0.142 |
| CTTATGGA | -0.101 |
| AGTCTTGC | 0.0304 |
| GTCCATAA | -0.219 |
| TATATCCA | -0.244 |
| AGGCACGG | 0.202 |
| CCATTGAG | 0.0767 |
| CCCCCACG | 0.0737 |
| CTCTACAG | -0.148 |

Repeated from above (study 2):
| Sequence | fitted relative affinity [z-score] |
| --- | --- |
| TAAGGTATCCTTCTCCTTTAGTGCTAG | 1.13 |
| GAAGGTATCGGGTATCGGGACGTGCTA | -0.154 |
| TCATTTTTCTTTAAAAGACTGTGCTAG | 1 |
| GACAGTATCCTACTGCTGACGTGCTAG | 0.678 |
| TTCAGTTTCACTGCTGCCCTGTGCTAG | 3.03 |
| TTAGGTCTCCTTATACTTTAGTGCTAG | 0.56 |
| GACGGTATCGACTAGCGGGACGTGCTA | 0.0536 |
